Measurements of several laboratories.
Protocols differ between the studies behind these lines. “And” joins repeats or separate records; there may be more than shown.
Target: STE20-like serine/threonine-protein kinase (SLK, Homo sapiens, UniProt Q9H2G2)

`Cc1ccc(-c2c(/C=C(\C#N)C(=O)NC(C)C)n(CCCO)c3ncnc(N)c23)cc1` has a remaining binding of 91% (cell-free assay, competition with immobilised ligand; 1 µM).
`CCN1CCN(Cc2ccc(NC(=O)c3ccc(C)c(NC(=O)c4cncc(-c5cccs5)c4)c3)cc2C(F)(F)F)CC1` has a remaining binding of 23% (binding, competition with immobilised ligand; 1 µM).
For `Cc1ccc(C(=O)Nc2ccc(CN3CCN(C)CC3)c(C(F)(F)F)c2)cc1C#Cc1cnc2cccnn12`, the Hill slope was 2.69 (target engagement, NanoBRET; human cells).
For `O=C(Cc1ccc(OCc2ccccc2)cc1)NC1(C(=O)O)CCN(C(=O)c2ccc(-c3cccc(Cl)c3)cc2)CC1`, “activity vs control” read 144% (enzyme activity, inhibitor; 10 µM).
`N[C@H]1CC[C@H](Nc2nccc(-c3cccnc3Oc3ccc(NC(=O)NC4CC4)c4ccccc34)n2)CC1`: “log2 LFQ intensity” 28 and 27.9 and 27.8 (kinobead competition pulldown; HEK293/HCT116 lysate mixture; 10 µM, 1 h, 4 °C; lower = stronger competition).
`CN1CCN(Cc2ccc(-c3ccc(CO[C@H]4CCC[C@@H]4NC(=O)c4cc(-c5cnn(C)c5)cnc4N)cc3)cc2)CC1` has an inhibition of 7% (enzyme activity, inhibitor; 0.1 µM).
`CCn1cc(C(=O)O)c(=O)c2c(N)c(F)c(NC3CCCCC3)cc21` gave an inhibition of -6% (kinase activity; 0.1 µM, added: ATP at Km).
`NC(=O)C[C@H]1CCc2sc3ncnc(O[C@H]4CC[C@H](N5CCOCC5)CC4)c3c21` has an inhibition of 5% (enzyme activity, inhibitor; 10 µM).
For `CNC(=O)C[C@H](Cc1ccc(C#N)cc1)NC(=O)c1cc(-c2ccc(CN[C@H](C)c3ccc(C)cc3)o2)ccc1Cl`, “activity vs control” read 116% (enzyme activity, inhibitor; 1 µM).
`COc1cc(Nc2nccc(-c3cnn4nc(OC)ccc34)n2)cc(C(F)(F)F)c1` gave a remaining binding of 98% (binding, competition with immobilised ligand; 1 µM).
`Cc1cccc(O[C@H]2CCC[C@@H](C(C)CNCc3ccncc3)C2)c1` (relative stereo) has an inhibition of 0% (enzyme activity, inhibitor; 1 µM).
`CCN1CCN(Cc2ccc(C(=O)Nc3ccc(C)c(NCc4cnc5[nH]ccc5c4OC)c3)cc2C(F)(F)F)CC1` gave a remaining binding of 2.1% (binding, competition with immobilised ligand; 1 µM).
For `C=CC(=O)Nc1cccc(-c2cnc3[nH]cc(C(=O)NC(C)(C)C)c3n2)c1`, the inhibition was 9% (enzyme activity, inhibitor; 0.1 µM).
`C=CC(=O)N1CCCC(n2c(=O)c3ncccc3n(Cc3ccc(Oc4ccccc4)cc3)c2=O)C1` (stereo not drawn) has a remaining binding of 98% (cell-free assay, competition with immobilised ligand; 1 µM).
`COc1c(Cl)cccc1Nc1c(-c2ccncc2C#C[C@@]2(C)CCCN2C(=O)/C=C/CN(C)C)[nH]c2c1C(=O)NCC2` has a remaining binding of 39% (binding, competition with immobilised ligand; 3 µM).

Excerpt of the above:
`CCN1CCN(Cc2ccc(NC(=O)c3ccc(C)c(NC(=O)c4cncc(-c5cccs5)c4)c3)cc2C(F)(F)F)CC1` has a remaining binding of 23% (binding, competition with immobilised ligand; 1 µM).
`COc1cc(Nc2nccc(-c3cnn4nc(OC)ccc34)n2)cc(C(F)(F)F)c1` gave a remaining binding of 98% (binding, competition with immobilised ligand; 1 µM).
